# Assay results collected from several papers.
# Each line is one published result; not all experiments were run side by side. Numbers after ± are the reported error.
SMILES,assay,test system,setting,how to read,remaining compound [%]
CC[C@H](C)[C@H](NC(=O)[C@H](Cc1c[nH]c2ccccc12)NC(=O)[C@H](CCCNC(=O)c1ccc2c(c1)C(=O)OC21c2ccc(O)cc2Oc2cc(O)ccc21)NC(=O)CNC(=O)[C@H]1CCCN1C(=O)[C@@H](NC(=O)[C@H](CCCNC(=N)N)NC(=O)[C@@H](NC(=O)[C@H](Cc1c[nH]c2ccccc12)NC(=O)[C@H](CCCNC(=N)N)NC(C)=O)C(C)C)C(C)C)C(=O)N[C@@H](CCCNC(=N)N)C(=O)N[C@@H](CCC(N)=O)C(N)=O,,HeLa cell lysate,"30 µM, 180 min, pH 7.6, 37 °C",relative to: time zero,~80
COc1cc(NC(C)=O)c2c(c1O)-c1c(OC)c(OC)cc3c1C(C2)N(C)CC3 (stereo not shown),,rat brain homogenate,"0.5 µg/mL, 4 h, room temperature, short-term storage",,115 ± 2.8
CCCC(CCC)NC(=O)c1ccc(OC)c(O)c1,,rat liver microsomes,"1.0 µM, 10 min",,85
O=C(Cc1ccc(-c2ccc(OCCN3CCOCC3)cc2)cn1)NCc1ccc(F)cc1,,human liver microsomes,"30 min, added: NADPH",,21.8 ± 1.4
Cc1cccn2nc(-c3ccc(F)cc3)c(-c3ccncc3)c12,,mouse liver microsomes,"1 µM, 0.5 h",,< 1
CSCC(NC(=O)c1cc(Cl)ccc1Cl)C(=O)NC(CC(C)C)B(O)O (stereo not shown),,human liver microsomes,"3 µM, 60 min, pH 7.4, added: NADPH",,50 ± 1.58
C[C@@]1(C(=O)O)CC/C=C/[C@H](OC(=O)Nc2ccn([C@@H]3O[C@H](CO)[C@@H](O)C3(F)F)c(=O)n2)CC1,,mouse plasma,"1 µM, time not given, 37 °C",,> 99
Clc1cccc(Cl)c1Nc1ccccc1Cc1nnn[nH]1,glucuronidation,human liver microsomes,"30 min, added: UDPGA",,100 ± 8.4
C[C@H](CCC(=O)NCCC(c1ccccc1)c1ccccc1)[C@H]1CC[C@H]2[C@@H]3CC[C@@H]4CC(=O)CC[C@]4(C)[C@H]3CC[C@]12C,,human plasma,2 h,,97.4
[Ru+2].c1ccc(-c2cccc(-c3ccccn3)n2)nc1.c1ccc2nc(-c3ccc4ccccc4n3)ccc2c1.c1ccncc1,,water,"24 h, 37 °C",,82
CC12CC3CC(C)(C1)CC(NC(=O)NC1CCC(Oc4ccc(C(=O)O)cc4)CC1)(C3)C2 (stereo not shown),,human liver microsomes,"1 µM, 30 min, 37 °C, 1 mg/mL microsomes, added: without NADPH",,100 ± 3
O=C(O)Cc1cc(F)ccc1Nc1c(Cl)cccc1Cl,,human liver microsomes,"30 min, added: NADPH",,44 ± 1
CC(C)Cn1c(SCC(=O)N2CCc3ccccc3C2)nc2cc(Cl)ccc2c1=O,,rat plasma,1 h,,71.5
CC1=C(C2=C(C)C(=O)c3c(cc(O)c(O)c3Cc3ccccc3)C2=O)C(=O)c2cc(O)c(O)c(Cc3ccccc3)c2C1=O (racemic),,rat plasma,"100 µM, 1 h, 37.5 °C",,99 ± 0.5
Oc1ccccc1-n1nc(-c2ccccc2)n[n+]1-c1ccccc1.[Br-],HPLC,fetal bovine serum,24 h,,100
N=C(N)NCCC[C@H](NC(=O)[C@@H]1CCCN1C(=O)[C@H](Cc1ccccc1)NC(=O)[C@@H]1CCCN1C(=O)[C@H](Cc1c[nH]cn1)NC(=O)[C@@H](N)Cc1ccccc1)C(=O)O,LC-MS/MS,Sprague Dawley rat plasma,"500 ng/mL, 10 min, room temperature",,35 ± 9.18
CN(C)c1ccc(NC(=S)N(C)c2ccccc2)cc1,metabolic stability,mouse liver microsomes,"3 µM, 30 min, added: NADPH 1 mM",,74
C=C(NC(=O)OCc1ccccc1)C(=O)N1CCC[C@H]1C(=O)NC(C)(C)C(=O)N[C@@H](C)C(=O)OC,1H NMR,DMSO-d6,"40 min, room temperature, added: cysteamine 2 equiv",,93
CC1=C(C=O)C(C)(C)CC=C1,,rat plasma,"500 µM, 4 h",,22

# Some of these lines once more:
SMILES,assay,test system,setting,how to read,remaining compound [%]
O=C(O)Cc1cc(F)ccc1Nc1c(Cl)cccc1Cl,,human liver microsomes,"30 min, added: NADPH",,44 ± 1
CC(C)Cn1c(SCC(=O)N2CCc3ccccc3C2)nc2cc(Cl)ccc2c1=O,,rat plasma,1 h,,71.5
CC1=C(C2=C(C)C(=O)c3c(cc(O)c(O)c3Cc3ccccc3)C2=O)C(=O)c2cc(O)c(O)c(Cc3ccccc3)c2C1=O (racemic),,rat plasma,"100 µM, 1 h, 37.5 °C",,99 ± 0.5
